Measurements from different studies.
“And” joins repeats or separate records; there may be more than shown. ± gives the spread as reported.

| SMILES | tested on | assay | test system | conditions | scale | endpoint | value |
| --- | --- | --- | --- | --- | --- | --- | --- |
| COc1c(C)c2c(c(O)c1C/C=C(\C)CCC(=O)O)C(=O)OC2 | C-33-A | cell proliferation |  |  |  | IC50 | 1.05 µM |
| C[C@]12CC[C@H](O)C[C@H]1CC[C@@H]1[C@@H]2C[C@@H](O)[C@]2(C)[C@@H](C3=CC(=O)OC3)CC[C@]12O | human iPSC cardiomyocytes | plate-normalised |  | concentration not given, hit retest | baseline: vehicle controls, SDs below control | MyBP-C level change | 14.7 SD |
| Cn1cncc1C1=CN(c2ncnc3[nH]cnc23)CCS1 | TK-10 |  |  | renal cancer |  | CC50 | > 200 µM |
| CCN(CC)c1ccc(C=NNC(=O)CSc2nc3ccccc3c(=O)n2Cc2ccc(S(N)(=O)=O)cc2)c(O)c1 | KM12 | NCI five-dose screen |  |  |  | CC50 | > 100 µM |
| CC1(C)O[C@@H]1COc1c2occc2cc2ccc(=O)oc12 | THP-1 | pyroptotic LDH release |  | 2 µM, 40 min, with: LPS then nigericin |  | inhibition | -7.81% |
| C[C@@H]1C[C@@H]([C@H](O)CC2CC(=O)NC(=O)C2)C(=O)[C@@H](C)C1 | MDA-MB-231 BAX/BAK siRNA knockdown | cell viability, CellTiter-Glo |  |  | direction not given | Z score | -0.597 |
| O=S(=O)(c1ccc(O)cc1)c1ccc(O)cc1 | HepG2 spheroids | Hoechst flow cytometry |  | 0.10 µM, 96 h |  | G2 phase cells | 12.1 ± 3.42% |
| CC[C@H](Nc1ncnc2[nH]cnc12)c1nc2cccc(F)c2c(=O)n1-c1ccccc1 | human coronavirus OC43 | virus-induced cell killing | MRC-5 | maximum over 10 doses |  | maximum inhibition | 0.397% |
| COc1ccc2c(c1)[nH]c1c(C)nccc12 | DU-145 | bisulfite pyrosequencing, measured: RASSF1A promoter CpG site 18 |  | concentration not given | baseline: vehicle | methylation reduction | 1.5% |
| CO[C@H]1C[C@@H](C[C@H](C)[C@H]2CC(=O)[C@@H](C)/C=C(\C)[C@H](O)[C@H](OC)C(=O)[C@@H](C)C[C@@H](C)/C=C/C=C/C=C(\C)[C@H](OC)C[C@H]3CC[C@H](C)[C@](O)(O3)C(=O)C(=O)N3CCCC[C@@H]3C(=O)O2)CC[C@@H]1OCCO (racemic) | Huh-7 | MTT |  |  | baseline: CC50 over IC50 | selectivity index | 12.7 |
| CCCC[C@@H]1NC(=O)[C@H](Cc2ccc(O)cc2)NC(=O)[C@@H]2CCCN2C(=O)[C@H](CC(=O)O)NC(=O)[C@H](C)NC(=O)[C@H](Cc2ccccc2)NC(=O)[C@@H]2CSCCC(=O)N3CN(CN(C3)C(=O)CCSC[C@@H](C(N)=O)NC1=O)C(=O)CCSCCC(=O)N[C@@H](CC(C)(C)C)C(=O)N1CCC[C@H]1C(=O)N[C@@H](CCC(=O)O)C(=O)N[C@H](CCCCNC(=O)CCc1cn(CCOCCOCCOCCN(CCOCCOCCOCCC(=O)N[C@H]3CSCCC(=O)N4CN5CN(C4)C(=O)CCSC[C@H](NC(=O)[C@@H](CC(=O)O)NC(=O)[C@H](Cc4cccc6ccccc46)NC(=O)[C@@H]4CCCN4C3=O)C(=O)N[C@@H](CCSC)C(=O)N[C@@H](CCCCNC(=N)N)C(=O)N[C@@H](CC(=O)O)C(=O)N[C@@H](Cc3c[nH]c4ccccc34)C(=O)N[C@@H](CO)C(=O)N[C@@H]([C@@H](C)O)C(=O)N3CCC[C@H]3C(=O)N3C[C@H](O)C[C@H]3C(=O)N[C@@H](Cc3c[nH]c4ccccc34)C(=O)N[C@H](C(N)=O)CSCCC5=O)CCOCCOCCOCCn3cc(CCC(=O)NCCCC[C@H]4NC(=O)[C@H](CCC(=O)O)NC(=O)[C@@H]5CCCN5C(=O)[C@H](CC(C)(C)C)NC(=O)CCSCCC(=O)N5CN6CN(C5)C(=O)CCSC[C@H](NC(=O)[C@H](Cc5ccc(O)cc5)NC(=O)[C@@H]5CCCN5C4=O)C(=O)N[C@@H](Cc4ccccc4)C(=O)N[C@@H](C)C(=O)N[C@@H](CC(=O)O)C(=O)N4CCC[C@H]4C(=O)N[C@@H](Cc4ccc(O)cc4)C(=O)N[C@@H](CCCC)C(=O)N[C@H](C(N)=O)CSCCC6=O)nn3)nn1)C(=O)N1CCC[C@H]1C(=O)N[C@@H](Cc1ccc(O)cc1)C(=O)N2 | human PBMC with HT-1376 coculture | IL-2 secretion |  | with: anti-CD3 |  | EC50 | 0.0044 ± 0.0019 µM |
| C[C@@H]1O[C@@H](O[C@H]2C[C@@H](O)[C@]3(CO)[C@H]4[C@H](O)C[C@]5(C)[C@@H](C6=CC(=O)OC6)CC[C@]5(O)[C@@H]4CC[C@]3(O)C2)[C@H](O)[C@H](O)[C@H]1O | human iPSC cardiomyocytes | plate-normalised |  | concentration not given, hit retest | baseline: vehicle controls, SDs below control | MyBP-C level change | 13.7 SD |
| Cc1cc(C(C)(C)c2ccc(O)c(C)c2)ccc1O | HepG2 spheroids | Hoechst flow cytometry |  | 10 µM, 24 h |  | G2 phase cells | 17.8 ± 4.56% |
| COc1ccc([C@H]2c3[nH]c4ccc(Cl)cc4c3CCN2C(=O)Oc2ccc(Cl)cc2)cc1 | human dermal fibroblasts with PBMC | cytokine secretion, measured: IL-8 |  | 0.1 µM, 48 h |  | inhibition | 44% |
| COc1cc(CCC[P+](c2ccccc2)(c2ccccc2)c2ccccc2)c(OC)c2c1OCO2.[I-] | KM12 | SRB |  |  |  | TGI | -5.18 log M |
| N.N.[Cl][Pt][Cl] | human normal skin fibroblasts | cell viability, Alamar Blue |  | dark |  | EC50 | 2.6 µM |

| SMILES | tested on | assay | test system | conditions | scale | endpoint | value |
| --- | --- | --- | --- | --- | --- | --- | --- |
| CC(C)N1CCC(NC2CCN(c3cccc(-c4cc5cc(F)ccc5[nH]4)c3)CC2)CC1 | TK-10 |  |  |  |  | CC50 | 7.5 µM |
| CC(C)C[C@@H]1NC(=O)[C@@H]2CSSC[C@@H](C(=O)NCC(N)=O)NC(=O)[C@H](Cc3ccccc3)NC(=O)CNC(=O)[C@H](CC(N)=O)NC(=O)[C@@H]3CCCN3C(=O)CNC(=O)[C@@H]3CSSC[C@H](NC(=O)[C@H]([C@@H](C)O)NC(=O)[C@H](CC(C)C)NC(=O)[C@@H]4CCCN4C(=O)[C@@H]4CCCN4C(=O)[C@H](CC(N)=O)NC(=O)[C@H](CC(=O)O)NC(=O)CNC(=O)[C@H](CCCNC(=N)N)NC(=O)[C@@H]4CCCN4C(=O)[C@H](CCCNC(=N)N)NC(=O)[C@@H]4CCCN4C(=O)[C@@H](NC(=O)CN)CSSC[C@H](NC(=O)CNC(=O)[C@H](C)NC1=O)C(=O)N[C@@H](C(C)C)C(=O)N3)C(=O)N[C@@H](CCCN=[N+]=[N-])C(=O)N[C@@H](CCC(N)=O)C(=O)N[C@@H](CC(=O)O)C(=O)N[C@@H](CO)C(=O)N[C@@H](CC(=O)O)C(=O)N2 | U-87 MG | cell proliferation, CCK-8 |  | 4 d | baseline: untreated | ED50 | > 1 µM |
| Oc1cc(Cl)ccc1Oc1ccc(Cl)cc1Cl | HepG2 | high content imaging, measured: nuclear size |  | 24 h, distribution mode 1 |  | point of departure | 5.62 µM and 9.55 µM |
| Cc1sc2c(c1C)C(c1ccc(Cl)cc1)=N[C@@H](CC(=O)OC(C)(C)C)c1nnc(C)n1-2 | iCas9-MOLM-13 sgGFP | RNA-seq, measured: CPNE7 |  | 50 nM, 24 h | baseline: DMSO | log2 fold change | -1.14 |
| C[C@@H]1C[C@H]2[C@@H]3C[C@H](F)C4=CC(=O)C=C[C@@]4(C)[C@@]3(F)[C@@H](O)C[C@]2(C)[C@@]1(OC(=O)C1C(C)(C)C1(C)C)C(=O)OCC#N | HEK293T ATF4-FLuc reporter | ATF4 reporter gene, activator, luciferase reporter |  |  |  | EC50 | 5.67 µM |
| CC(c1ccccc1)(c1ccc(O)cc1)c1ccc(O)cc1 | HepG2 spheroids | Hoechst flow cytometry |  | 10 µM, 96 h |  | G2 phase cells | 19.9 ± 4.1% |
| Nc1ncnc2c1ncn2[C@@H]1O[C@@H]2COP(=O)(O)O[C@H]3[C@@H](O)[C@H](n4cnc5c(=O)[nH]cnc54)O[C@@H]3COP(=O)(O)O[C@H]2[C@H]1O | HFF-1 | RNA sequencing, measured: Reactome Interleukin-10 signaling |  | upregulated pathways | baseline: mock | fold enrichment | 12.6 |
| CC(C)[C@H](N)C(=O)N1CCC[C@H]1B(O)O | Ker-CT keratinocytes, CASP1 knockout | inducer, ELISA |  | concentration not given |  | IL-1β release | 9.83 pg/mL |
| CS(=O)(=O)c1ccc(C(=O)C2C(=O)CCCC2=O)c([N+](=O)[O-])c1 | THP-1 | pyroptotic LDH release |  | 2 µM, 40 min, with: LPS then nigericin |  | inhibition | -25.8% |
| O=C1N[C@H]2[C@H](CS[C@H]2CCCCC(=O)N2CCN(C(=O)c3ccc(/C=C/c4n[nH]c5cc(-c6ccc(S(=O)(=O)F)cc6)ccc45)cc3)CC2)N1 | K562, HeLa, MCF7 combined | SILAC LC-MS/MS |  | SILAC ratio at least 2 |  | number of engaged kinases | 114 |
| C/C=C(/C)C(=O)O[C@H]1C(C)=C2[C@H]([C@@H]1OC(=O)CCCCCCC)[C@@](C)(OC(C)=O)C[C@H](OC(=O)CCC)[C@@]1(O)[C@H]2OC(=O)[C@@]1(C)O | HEK-293T | RNA-seq GSEA, measured: Hallmark myogenesis |  | 500 nM, 6 h | direction not given | normalized enrichment score | -0.99 |
| OC[C@H]1O[C@@H](c2ccc(Cl)c(Cc3ccc(O[C@H]4CCOC4)cc3)c2)[C@H](O)[C@@H](O)[C@@H]1O | human coronavirus OC43 | virus-induced cell killing | MRC-5 | screen |  | maximum inhibition | 20% |
| O=c1cc(-c2ccc(O)cc2)oc2c([C@@H]3OC[C@H](O)[C@H](O)[C@H]3O)c(O)c([C@@H]3O[C@H](CO)[C@@H](O)[C@H](O)[C@H]3O)c(O)c12 | CaMKII-δ overexpressing cells | GFP-RFP-LC3 reporter |  | concentration not given, adenoviral CaMKII-δ overexpression |  | autolysosome formation | increased |
| O=C1CCP(=S)(c2ccccc2)CC1 | SW-620 | annexin V/PI flow cytometry |  | IC50, 72 h |  | early apoptotic cells | 2.55% |
| Cc1nn(-c2nc3c(F)cc(F)cc3s2)c(O)c1C(c1ccc(C(F)(F)F)cc1)c1c(C)nn(-c2nc3c(F)cc(F)cc3s2)c1O | RAW-ISG | CCK-8 |  | 3.125 µM |  | viability | 102% and 108% and 98.5% and 105% |

A few entries again:
| SMILES | tested on | assay | test system | conditions | scale | endpoint | value |
| --- | --- | --- | --- | --- | --- | --- | --- |
| N.N.[Cl][Pt][Cl] | human normal skin fibroblasts | cell viability, Alamar Blue |  | dark |  | EC50 | 2.6 µM |
| C[C@@H]1C[C@H]2[C@@H]3C[C@H](F)C4=CC(=O)C=C[C@@]4(C)[C@@]3(F)[C@@H](O)C[C@]2(C)[C@@]1(OC(=O)C1C(C)(C)C1(C)C)C(=O)OCC#N | HEK293T ATF4-FLuc reporter | ATF4 reporter gene, activator, luciferase reporter |  |  |  | EC50 | 5.67 µM |
